Results of several laboratories.
pIC50: −log10 of the molar value.

| SMILES | organism | test | system | setting | quantity | value |
| --- | --- | --- | --- | --- | --- | --- |
| CCOC(=O)C(C)NC(=O)CN1C(=O)S/C(=C\c2ccc(F)cc2)C1=O (stereo not shown) | Leishmania major | parasite growth, resazurin | – | promastigote | pIC50 | < 4.00 |
| O=C1CC(c2ccc(O)cc2)Oc2cc(O)cc([O][Ga+][O]c3cc(O)cc4c3C(=O)CC(c3ccc(O)cc3)O4)c21 (stereo not shown) | Pseudomonas aeruginosa | bacterial viability | – | – | IC50 | 0.65 µg/mL |
| CC(=O)OC[C@H]1O[C@@H](NC(=O)NC(=O)[C@@H](C)Cc2ccc(C(C)C)cc2)[C@H](OC(C)=O)[C@@H](OC(C)=O)[C@@H]1OC(C)=O | reovirus 1 | viral cytopathicity | Vero | – | pIC50 | < 4.00 |
| COC1C=COC2(C)Oc3c(C)c(O)c4c(c3C2=O)C2=NC3(CCN(CC(C)C)CC3)NC2=C(NC(=O)C(C)=CC=CC(C)C(O)C(C)C(O)C(C)C(OC(=O)Nc2cnccn2)C1C)C4=O (stereo not shown) | Mycobacteroides abscessus | – | ATCC 19977 | CAMHB | pIC50 | 7.74 |
| COC(=O)c1cccc(NC(=O)c2[nH]c3cc(C)sc3c2CN2CCOCC2)c1 | Giardia duodenalis | parasite growth | – | 48 h | pIC50 | < 5.00 |
| CCC(NC(=O)CN1C(=O)N/C(=C\c2ccc(C)cc2)C1=O)C(=O)OC (stereo not shown) | Leishmania major | parasite growth | – | 72 h, intracellular, amastigote | pIC50 | 5.13 |
| Cc1ccc(F)c(NC(=O)c2[nH]c3cc(C)sc3c2CN(C)C)c1 | Giardia duodenalis | parasite growth | – | 48 h | pIC50 | < 5.00 |
| CCOC(=O)C(NC(=O)CN1C(=O)/C(=C/c2ccc([N+](=O)[O-])cc2)SC1=S)C(C)C (stereo not shown) | Leishmania major | parasite growth, resazurin | – | promastigote | pIC50 | < 4.00 |
| COCCNC(=O)c1[nH]c2cc(C)sc2c1CN(C)C | Giardia duodenalis | parasite growth | – | 48 h | pIC50 | < 5.00 |
| Cc1cc(N2CC[C@@](C#N)(C3(C)CC3)C2=O)cc(C(=O)NCc2cc(F)cc(-c3cnn(C)c3)c2)n1 | Plasmodium falciparum | parasite growth | – | liver stage | pIC50 | 8.05 |
| COc1ccc(C(=O)CSc2nnc(COCCn3c([N+](=O)[O-])cnc3C)o2)cc1F | Giardia duodenalis | parasite growth | – | – | pIC50 | 6.06 |
| Cc1cc2[nH]c(C(=O)Nc3cc(F)ccc3Cl)c(CN(C)C)c2s1 | Giardia duodenalis | parasite growth | – | 48 h | pIC50 | 5.24 |
| Cc1ncc([N+](=O)[O-])n1CCOCc1nnc(SCC(=O)c2ccc(Br)cc2)o1 | Giardia duodenalis | parasite growth | – | – | pIC50 | 5.74 |
| CCOC(=O)CNC(=O)CN1C(=O)S/C(=C\c2ccc(C)cc2)C1=O | Leishmania major | parasite growth | – | 72 h, intracellular, amastigote | pIC50 | < 5.00 |
| Cc1ncc([N+](=O)[O-])n1CCOCc1nnc(SCC(=O)c2ccc(O)cc2)o1 | Giardia duodenalis | parasite growth | – | – | pIC50 | 5.65 |
| O=C1Nc2ccc(Cl)cc2C1=Cc1ccc(-c2cccc(C(=O)NCC3CCNCC3)c2)o1 (mixture of isomers) | Trichuris muris | adult worm motility | – | 48 h | pIC50 | 4.24 |

For quick reference, copied from above:
| SMILES | organism | test | system | setting | quantity | value |
| --- | --- | --- | --- | --- | --- | --- |
| CC(=O)OC[C@H]1O[C@@H](NC(=O)NC(=O)[C@@H](C)Cc2ccc(C(C)C)cc2)[C@H](OC(C)=O)[C@@H](OC(C)=O)[C@@H]1OC(C)=O | reovirus 1 | viral cytopathicity | Vero | – | pIC50 | < 4.00 |
| COC1C=COC2(C)Oc3c(C)c(O)c4c(c3C2=O)C2=NC3(CCN(CC(C)C)CC3)NC2=C(NC(=O)C(C)=CC=CC(C)C(O)C(C)C(O)C(C)C(OC(=O)Nc2cnccn2)C1C)C4=O (stereo not shown) | Mycobacteroides abscessus | – | ATCC 19977 | CAMHB | pIC50 | 7.74 |
